Measured values from different studies.
Compare with care: the assays were run in different laboratories. ± gives the spread as reported. In brackets after ≈: the same amount, converted by molar mass.

CC(C)C[C@H](NC(=O)[C@H](CCc1ccccc1)NC(=O)CN1CCOCC1)C(=O)N[C@@H](Cc1ccccc1)C(=O)N[C@@H](CC(C)C)C(=O)[C@@]1(C)CO1
parasiticidal concentration (Babesia divergens; erythrocyte culture; 48 h, parasitemia below starting 2%): ≥ 100 nM

CC(=O)N[C@@H](C)C(=O)N[C@@H](CCC(N)=O)C(=O)N[C@@H](CCCCN)C(=O)N[C@@H](CC(C)C)C(=O)N[C@@H](CC(C)C)C(=O)N[C@@H](CCCCN)C(=O)N[C@@H](CCCCN)C(=O)N[C@@H](Cc1ccccc1)C(=O)N[C@@H](CO)C(=O)N[C@@H](CC(C)C)C(=O)N[C@@H](CC(C)C)C(=O)N[C@@H](CCCCN)C(=O)N1CCC[C@H]1C(=O)N[C@@H](Cc1c[nH]c2ccccc12)C(=O)N[C@@H](C)C(=O)O
inhibition (Pseudomonas aeruginosa; Fe2+ uptake; PA14, iron-depleted; 25 µM, 45 min pretreatment, 35 °C, together with: FeSO4 100 µM, 15 min): 61%

CC[C@H](C)[C@H](NC(=O)CNC(=O)[C@H](CCC(=O)O)NC(=O)[C@H](CO)NC(=O)[C@@H](NC(=O)[C@H](CCCNC(=N)N)NC(=O)[C@H](CCCCN)NC(=O)[C@H](CCCCN)NC(=O)[C@H](C)NC(=O)[C@H](CO)NC(=O)[C@H](CC(N)=O)NC(=O)[C@H](CCC(=O)O)NC(=O)[C@H](CC(C)C)NC(=O)[C@H](CCCCN)NC(=O)[C@H](CCCCN)NC(=O)[C@H](C)NC(=O)[C@@H](NC(=O)[C@H](CCCCN)NC(=O)[C@H](CO)NC(=O)[C@H](CC(C)C)NC(=O)[C@H](Cc1c[nH]c2ccccc12)NC(=O)[C@@H](N)CO)[C@@H](C)O)[C@@H](C)CC)C(=O)N[C@@H](C)C(=O)N[C@H](C(=O)N[C@@H](C)C(=O)N[C@H](C(=O)N[C@@H](CCC(N)=O)C(=O)NCC(=O)NCC(=O)N1CCC[C@H]1C(=O)N[C@@H](CCCNC(=N)N)C(=O)O)[C@@H](C)CC)[C@@H](C)CC
MIC range (Pseudomonas aeruginosa; broth microdilution; 18 h, 10 clinical isolates): 2 to 32 µg/mL (≈ 0.599 to 9.58 µM)

O=Cc1c[nH]c2ccc([N+](=O)[O-])cc12
IC50 (Trypanosoma equiperdum; trypomastigotes, IVM-t1): > 131 µM

CC[C@@H](C(=O)[C@@H](C)[C@@H](O)[C@H](C)CCc1ccc(C)c(O)c1C(=O)O)[C@H]1O[C@](CC)([C@H]2CC[C@](O)(CC)[C@H](C)O2)C[C@@H]1C
viability (Eimeria tenella; sporozoites; 1 µM, 24 h; relative to: DMSO): 21.9%

Nc1ncnc2c1c(-c1cccnc1)cn2[C@@H]1O[C@H](CO)[C@@H](O)[C@H]1O
EC50 (Trichomonas vaginalis; resorufin; G3, metronidazole-sensitive; 24 h + 2 h, 2% O2): 8.54 ± 0.962 µM

CC1(C)SC2C(NC(=O)C(NC(=O)C3=C(O)CNC3=O)c3ccccc3)C(=O)N2C1C(=O)O (centres unmarked)
MIC (Escherichia coli; broth microdilution; BW25113, Mueller-Hinton broth; together with: CCCP 50 µg/mL): 25 µg/mL (≈ 52.7 µM)

CO/N=C(\C(=O)N[C@@H]1C(=O)N2C(C(=O)O)=C(CSc3nc(=O)c(=O)[nH]n3C)CS[C@H]12)c1csc(N)n1
FIC index (Pseudomonas aeruginosa; checkerboard; ATCC 27853; together with: magainin II): 0.25

Nc1ncnc2c1c(C1CCCCC1)cn2C1OC(CO)CC1O (centres unmarked)
EC50 (Trichomonas vaginalis; resorufin; G3, metronidazole-sensitive; 24 h + 2 h, 2% O2): 42.8 ± 2.18 µM

CC[C@@H](C)[C@@H](NC(=O)[C@@H](C)NC(=O)[C@@H](CCCNC(=N)N)NC(=O)[C@@H](Cc1c[nH]c2ccccc12)NC(=O)[C@@H](CCC(N)=O)NC(=O)[C@H](N)C(C)C)C(=O)N[C@H](CCCNC(=N)N)C(=O)N[C@@H](C(=O)N[C@H](CCCNC(=N)N)C(=O)N[C@@H](C(=O)N[C@@H](C(=O)N[C@H](CCCNC(=N)N)C(N)=O)[C@H](C)CC)C(C)C)C(C)C
survival (Pseudomonas aeruginosa; PAO1, Galleria mellonella larvae; proleg injection, 20 µg per larva, 24 h post infection, 37 °C, dosed 1 h after infection): 90 ± 6%

CC1(C)SC2C(NC(=O)C(NC(=O)C3=C(O)C(Cc4ccc([N+](=O)[O-])cc4)NC3=O)c3ccccc3)C(=O)N2C1C(=O)O (centres unmarked)
MIC (Escherichia coli; broth microdilution; BW25113, Mueller-Hinton broth): 100 µg/mL (≈ 164 µM)

CC[C@H]1OC(=O)[C@H](C)[C@@H](O[C@H]2C[C@@](C)(OC)[C@@H](O)[C@H](C)O2)[C@H](C)[C@@H](O[C@@H]2O[C@H](C)C[C@H](N(C)C)[C@H]2O)[C@](C)(OC)C[C@@H](C)C(=O)[C@H](C)[C@@H](O)[C@]1(C)O
FIC index (Pseudomonas aeruginosa; checkerboard broth microdilution; clinical isolate 17-99; together with: ranalexin): 0.25

O=c1[nH]c(=O)c2ncn(C[C@H](CF)OCP(=O)(O)O)c2[nH]1
EC50 (herpes simplex virus 2; cytopathic effect; HEL, G): > 313 µM

Cc1ccc(-c2cn([C@@H]3O[C@H](CO)C[C@H]3O)c3ncnc(N)c23)cc1Cl
EC50 (Trichomonas vaginalis; resorufin; G3, metronidazole-sensitive; 24 h + 2 h, 2% O2): 0.42 ± 0.021 µM

C[C@H]1[C@H](C)CC[C@]2(CO)CC[C@]3(C)C(=CC[C@@H]4[C@@]5(C)CC[C@H](O)C(C)(C)[C@@H]5CC[C@]43C)[C@H]12
invasion rate (Eimeria tenella; MDBK, sporozoites; maximum non-toxic concentration; relative to: DMSO): 78.9%

Nc1ncnc2c1c(-c1ccc(Cl)cc1Cl)cn2[C@@H]1O[C@H](CO)C[C@H]1O
EC50 (Trichomonas vaginalis; resorufin; G3, metronidazole-sensitive; 24 h + 2 h, 2% O2): 1.62 ± 0.31 µM

CC1NC(=O)C(C(=O)NC(C(=O)NC2C(=O)N3C2SC(C)(C)C3C(=O)O)c2ccccc2)=C1O (centres unmarked)
MIC (Acinetobacter baumannii; microbial growth, broth dilution; ATCC19606): ≥ 200 µg/mL

CC(C)(O/N=C(\C(=O)N[C@@H]1C(=O)N2C(C(=O)[O-])=C(C[n+]3ccccc3)CS[C@H]12)c1csc(N)n1)C(=O)O
FIC index (Pseudomonas aeruginosa; checkerboard broth microdilution; clinical isolate 17-99; together with: magainin II): 0.25

CCC(=O)Nc1cc(C(=O)Nc2ccc(Cl)cc2)ccc1O
IC50 (Enterovirus A; cytopathic effect; Vero, EV71; 48 h): 11.7 µM

Nc1ncnc2c1c(-c1cc(Cl)cc(Cl)c1)cn2[C@@H]1O[C@H](CO)C[C@H]1O
EC50 (Trichomonas vaginalis; resorufin; G3, metronidazole-sensitive; 24 h + 2 h, 2% O2): 9.48 ± 1.06 µM

Nc1ccn(C[C@@H](CO)OCP(=O)(O)O)c(=O)n1
EC50 (herpes simplex virus 1; cytopathic effect; primary human keratinocytes, KOS; 72 h): 1.4 ± 0.03 µg/mL

COc1ccccc1C1Sc2ccc(C(F)(F)F)cc2NC2=C1C(=O)c1ccccc12 (centres unmarked)
IC50 (Chlamydia trachomatis; inclusion formation, immunofluorescence imaging; HEp-2, serovar L2; 24 h post-infection, added 8 h post-infection): 1.08 µg/mL

C[C@@H](O)[C@H]1C(=O)N2C(C(=O)O)=C(S[C@@H]3CN[C@H](C(=O)N(C)C)C3)[C@H](C)[C@H]12
FIC index (Pseudomonas aeruginosa; checkerboard broth microdilution; clinical isolate 8-97; together with: magainin II): 0.25

Nc1ncnc2c1c(-c1ccccc1)cn2[C@@H]1O[C@H](CO)C[C@H]1O
EC50 (Trichomonas vaginalis; resorufin; G3, metronidazole-sensitive; 24 h + 2 h, 2% O2): 8.3 ± 0.97 µM

CC1(C)SC2C(NC(=O)C(NC(=O)C3=C(O)C4(CC4)NC3=O)c3ccccc3)C(=O)N2C1C(=O)O (centres unmarked)
MIC (Acinetobacter baumannii; microbial growth, broth dilution; ATCC19606): 25 µg/mL (≈ 49.9 µM)

CC(C)C[C@H](NC(=O)[C@H](Cc1ccccc1)NC(=O)c1cnccn1)B(O)O
minimum significant inhibitory concentration (Babesia divergens; parasite growth, parasitemia by blood smear; ex vivo blood culture; 48 h; relative to: DMSO): 50 nM

COC(=O)Nc1c(Cc2cccc3ccccc23)cc(=O)n2c1SCC2C(=O)Nc1ccccc1 (centres unmarked)
inhibition (Chlamydia trachomatis; infectivity, second cycle; HeLa, serovar L2; 1 µM, 48 h; relative to: DMSO): -19 ± 21%

CCN1CCN(C(=O)N[C@@H](C(=O)N[C@@H]2C(=O)N3[C@@H]2SC(C)(C)[C@@H]3C(=O)O)c2ccccc2)C(=O)C1=O
FIC index (Pseudomonas aeruginosa; checkerboard broth microdilution; clinical isolate 17-99; together with: magainin II): 0.25

CC1(C)CC[C@]2(C(=O)O)CC[C@]3(C)C(=CC[C@@H]4[C@@]5(C)CC[C@H](O)C(C)(C)[C@@H]5CC[C@]43C)[C@@H]2C1
IC50 (Eimeria tenella; parasite growth; 24 h): 19.2 µM

C[C@H]1c2cccc(O)c2C(=O)C2=C(O)[C@]3(O)C(=O)C(C(N)=O)=C(O)[C@@H](N(C)C)[C@@H]3[C@@H](O)[C@@H]21
FIC index (Pseudomonas aeruginosa; checkerboard broth microdilution; clinical isolate 8-97; together with: magainin II): 1.5

COc1cc(-c2cn([C@@H]3O[C@H](CO)C[C@H]3O)c3ncnc(N)c23)ccc1Cl
EC50 (Trichomonas vaginalis; resorufin; G3, metronidazole-sensitive; 24 h + 2 h, 2% O2): 1.75 ± 0.15 µM

CCOC(=O)c1c(N)csc1-c1cn(-c2ccccc2)nc1-c1ccc(C)cc1
MIC (Klebsiella pneumoniae; broth microdilution; clinical urinary isolate; compound gamma-irradiated 0 kGy): 0.25 ± 0.5 µg/mL (≈ 0.62 µM)

colistin
FIC index (Pseudomonas aeruginosa; checkerboard titration; 17-99; together with: magainin II): 1

CC1(C)SC2C(NC(=O)C(NC(=O)C3=C(O)C(Cc4ccccc4)NC3=O)c3ccccc3)C(=O)N2C1C(=O)O (centres unmarked)
MIC (Escherichia coli; broth microdilution; BW25113, Mueller-Hinton broth): 100 µg/mL (≈ 177 µM)

Nc1ncnc2c1ncn2CCOCP(=O)(O)O
EC50 (herpes simplex virus 2; cytopathic effect; primary human keratinocytes, G): 13 ± 2.1 µg/mL

A few entries again:
CC1(C)SC2C(NC(=O)C(NC(=O)C3=C(O)C(Cc4ccccc4)NC3=O)c3ccccc3)C(=O)N2C1C(=O)O (centres unmarked)
MIC (Escherichia coli; broth microdilution; BW25113, Mueller-Hinton broth): 100 µg/mL (≈ 177 µM)

CC1(C)CC[C@]2(C(=O)O)CC[C@]3(C)C(=CC[C@@H]4[C@@]5(C)CC[C@H](O)C(C)(C)[C@@H]5CC[C@]43C)[C@@H]2C1
IC50 (Eimeria tenella; parasite growth; 24 h): 19.2 µM
